Assay results gathered from unrelated publications.
Every numbered part comes from another study and shows a few of its results, in no order.

Block 1
Target: Centromere-binding protein 1, full length, N-terminal tag (CBF1, Saccharomyces cerevisiae, UniProt P17106, residues 1-351)
UniProt P17106, sequence (whole entry, looked up): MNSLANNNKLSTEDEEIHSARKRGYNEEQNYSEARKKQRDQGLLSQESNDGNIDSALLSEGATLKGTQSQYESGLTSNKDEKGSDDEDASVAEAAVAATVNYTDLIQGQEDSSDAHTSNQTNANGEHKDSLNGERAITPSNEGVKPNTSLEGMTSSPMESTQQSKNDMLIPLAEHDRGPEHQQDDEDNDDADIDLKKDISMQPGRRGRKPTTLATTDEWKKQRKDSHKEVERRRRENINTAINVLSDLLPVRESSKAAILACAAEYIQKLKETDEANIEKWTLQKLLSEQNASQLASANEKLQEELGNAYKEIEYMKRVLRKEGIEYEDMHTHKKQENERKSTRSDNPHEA
Technique: protein-binding microarray
Molecule type: double-stranded DNA, one strand shown
Sample: in vitro
Concentration: 0.8 µM
Setting: whole 60-bp probe, no competitor
Direction: higher = stronger binding
Measurement: fluorescence intensity
CTAAGAAGAGTCATTCACATGCAAGTGCGCAACTTCGTCTTGATTCGCTTGACGCTGCTG: 606 a.u.
GAATTTGTTTCCGCCCATGTGCTCCCTCTACCGTAGGTCTTGATTCGCTTGACGCTGCTG: 778 a.u.
GAAGTTTTTATGCTAATCGTGCTAGCTGATAATTAGGTCTTGATTCGCTTGACGCTGCTG: 540 a.u.
CTACAAGTAAAATGCAACGTGCAAATGCTGATCTTCGTCTTGATTCGCTTGACGCTGCTG: 692 a.u.

Block 2
Target: Sal-like protein 4, full length isoform B (SALL4, Homo sapiens, UniProt Q9UJQ4-2, residues 1-616)
Technique: universal PBM
Molecule type: double-stranded DNA, one strand shown
Sample: in vitro
Concentration: not given
Setting: 8-mer, flanks averaged, mean of replicates
Direction: higher = stronger binding
Measurement: E-score
AGCTAGAC: -0.218
CAGCAAGC: -0.193
AATAATGC: 0.324
CCGTGTAA: -0.00615
AAGACACC: -0.243
AATTGGAA: 0.143
CCGGTGAG: -0.332
ACCGACCC: -0.165

Block 3
Cell line: HEK-293T/ACE2
Concentration: 10 µM
Time: 16 h
Relative to: vehicle
Measurement: viability
COc1cc(C)c(/C=C/C(C)=C/C=C/C(C)=C/C(=O)O)c(C)c1C: 98.3%
CN(C)CC[C@@H](c1ccc(Cl)cc1)c1ccccn1: 99.4%
COC(=O)C1=C(C)NC(C)=C(C(=O)OC(C)C)C1c1cccc2nonc12 (stereo not shown): 98.7%

Block 4
Target: Myc proto-oncogene protein, bHLH-zipper, MAX partner unstated (MYC, Homo sapiens, UniProt P01106, residues 368-449)
UniProt P01106, sequence (368-449, looked up): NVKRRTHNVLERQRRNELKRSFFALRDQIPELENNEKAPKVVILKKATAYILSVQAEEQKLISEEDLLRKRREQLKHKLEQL
Technique: protein-binding microarray
Molecule type: double-stranded DNA, one strand shown
Sample: in vitro
Concentration: not given
Setting: k-mer, scored over probes, only values ≥0.25
Direction: higher = stronger binding
Measurement: E-score
CGCGGCGC: 0.251
CACCCCGC: 0.334
CGCAACCA: 0.259
CAACGTGC: 0.432

Block 5
Target: Replicase polyprotein 1ab, nsp13 helicase (rep, Severe acute respiratory syndrome coronavirus 2, UniProt P0DTD1)
Action: inhibitor
Concentration: 20 µM
Measurement: inhibition
C[C@H]1[C@H](C)CC[C@]2(C(=O)O)CC[C@]3(C)C(=CC[C@@H]4[C@@]5(C)C[C@@H](O)[C@H](O)[C@@](C)(CO)[C@@H]5CC[C@]43C)[C@H]12: 2.85%
COc1c(C)c2c(c(O)c1C/C=C(\C)CCC(=O)O)C(=O)OC2: -2.16%
N#Cc1cc(-c2n[nH]c(-c3ccncc3)n2)ccn1: -1.32%
Fc1cc(-c2cccc3ncc(-c4cnn(C5CCNCC5)c4)nc23)cc(F)c1CN1CCOCC1: 36.2%
Nc1cc(F)ccc1NC(=O)/C=C/c1cnn(C/C=C/c2ccccc2)c1: 2.19%
COc1cc(N)cn[n+]1-c1ccccc1: 0.82%
O=C(O)c1cc(O)c2c(c1)C(=O)c1cccc(O)c1C2=O: 8.38%
CCCCCCCCCCCCCCCC(=O)C(F)(F)F: -4.63%
N=C(N)N: 2.2%
CC(C)c1c(CN(C)C(C)Cc2ccccc2)n(C)n(-c2ccccc2)c1=O (stereo not shown): 5.63%
O=Nc1c(-c2c(O)[nH]c3cc(Br)ccc23)[nH]c2ccccc12: 10.6%
O=C(NCCS(=O)(=O)c1ccc(C(F)(F)F)cn1)c1ccc(Cl)cc1: 2.2%
COc1ccc(S(=O)(=O)Nc2cc(Cl)cc(Cl)c2OC)cc1N1CCNCC1: 1.23%
COc1ccc(/C=C2\CCCN=C2c2cccnc2)c(OC)c1: 1.6%
c1coc(-c2nnc3sc(C4CCCCC4)nn23)c1: -0.34%
Cc1c(N2C(=O)[C@@H]3[C@H](O)CCN3C2=O)ccc(C#N)c1Cl: 8.82%
CNC(=O)c1c(I)c(C(=O)NCC(=O)Nc2c(I)c(C(=O)O)c(I)c(C(=O)NCCO)c2I)c(I)c(N(C)C(C)=O)c1I: -1.4%
COc1cc2nc(N3CCC(N4CCCCC4)CC3)nc(NC3CCCCCC3)c2cc1OC: 32.9%
FC(F)(F)C(F)(F)C(F)(F)C(F)(F)C(F)(F)C(F)(F)C(F)(F)C(F)(F)Br: 4.11%
CCN(CC)C(=O)N[C@H]1C[C@@H]2c3cccc4[nH]cc(c34)C[C@H]2N(C)C1: 9.73%
N[C@H]1C(O)O[C@H](CO)[C@@H](O)[C@@H]1O (stereo partly shown): 7.66%
CC1(C)CCC(C)(C)c2cc(NC(=O)c3ccc(C(=O)O)cc3)ccc21: 0.5%
Clc1ccc2c(c1)N=C(N1CCNCC1)c1ccccc1N2: 6.14%
CC(CN(C)C)CN1c2ccccc2CCc2ccccc21 (stereo not shown): 3.46%
Oc1ccc(Cl)c2cccnc12: -4.91%

Block 6
Target: Replicase polyprotein 1ab, main protease (rep, Severe acute respiratory syndrome coronavirus 2, UniProt P0DTD1)
Observed: enzyme activity
Action: inhibitor
Concentration: 20 µM
Setting: primary screen
Measurement: inhibition
O=C1C(CC[S+]([O-])c2ccccc2)C(=O)N(c2ccccc2)N1c1ccccc1 (stereo not shown): 28.2%
CC(CN1CC(=O)NC(=O)C1)N1CC(=O)NC(=O)C1 (stereo not shown): 101%
O=c1cc(-c2ccccc2)oc2cc(O)c(O)c(O)c12: 98%

Block 7
Target: RNA binding protein fox-1 homolog 2, RRM domain, GST-SBP tag (RBFOX2, Homo sapiens, UniProt O43251-10, residues 100-194)
Technique: RNA Bind-n-Seq
Molecule type: RNA
Sample: in vitro
Concentration: 365 nM
Setting: natural RNA segment, single round, ends assumed
Relative to: no-protein control
Direction: higher = stronger binding
Measurement: RBNS enrichment (R)
Shared flanks, not repeated: GGGAGUUCUACAGUCCGACGAUC … UGGAAUUCUCGGGUGCCAA
Residues (chain): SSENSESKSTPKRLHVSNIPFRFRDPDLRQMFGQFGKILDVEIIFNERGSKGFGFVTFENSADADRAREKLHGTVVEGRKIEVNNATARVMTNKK
AUGUUAUAUUUUUUUUUAAAAAUAACUCUGAGUAGGGGUACCACUGAAUCUGUACAGAGCCGUACAAACCGAAGUUCUGCCUCUGAUGUACUUUGUGAAUUUGUUUCUUU: 0.474
GCUGGAGGGGGGUGGUGAGCCAGAGGGCAGGAGCAUUUUCUGAGCCCUUUCUUGGUGUGUGGGGGAUCUAUGGCCAUCUCCUACCAUGAGGGAGCUACCCAGCUUCCUGU: 0.654
UUUGGUAACUAGGUUAUGGGCUCUACAUUGUCAGCUACUUGGGAUAUAUAUUUAAUUUUCUUAAAUUCCCGUUAAACUCUAUUUUAUGGUUUUGAUUUCAGAUUGCAAAC: 0.719
AGUGGUGCCUCUUCCAGAAGACUCUGGAAGAUUACCUACUUGGGGGUAGGCCUUGGAGGGAAAUCUGUAGGGGUGGGGACCUUCCUACCUUCCUGGCUUGAGAACAGCCC: 0.321
CCUUGGCCUCUCGAAGUGCUGGGAUUACAGGCGUGAGCCACCCGCCCGGCUAUCAGCACUGUUCUGAUUGCAGACGUUUCACAGCAUGUUUGGCUUUUGGUAAAUUCAAU: 12.4
UGGCCCCACCCCAGCUCUCUUUCUCUGGGGUACUUAGGGAGAGGAUCCUUCCUCUCCGAGGAUCCUCAUUAUAUACCUAGUAGGAAGGACUCUGAACUCAGAGCAGUCAC: 0.396
AAGACAUAUCAUGUGUGAGAUAACUUCCUUCACAUCUCCCAUGGUCCCUAGCAAAAUGCUAGGCCUGUAGUAGUCAAGGUGCUCAAUAAAUAUUUGUUUGGGUGGUUUGU: 0.321
UUAGAUGUUUGUCUUGCACAACAUUGGCAUGAUUUUUCCGGGAGUUUCAUCAGAUCUGAUUUCUGAGAGUCUGGGGAUCUGCCAUGGUGGAAAGUGCCCCUCAAAAGCAU: 0.489

Repeated from above (block 5):
Cc1c(N2C(=O)[C@@H]3[C@H](O)CCN3C2=O)ccc(C#N)c1Cl: 8.82%
CNC(=O)c1c(I)c(C(=O)NCC(=O)Nc2c(I)c(C(=O)O)c(I)c(C(=O)NCCO)c2I)c(I)c(N(C)C(C)=O)c1I: -1.4%
COc1cc2nc(N3CCC(N4CCCCC4)CC3)nc(NC3CCCCCC3)c2cc1OC: 32.9%
FC(F)(F)C(F)(F)C(F)(F)C(F)(F)C(F)(F)C(F)(F)C(F)(F)C(F)(F)Br: 4.11%
